Measured values collected from several papers.
Lines come from different studies, so protocols differ. ± gives the spread as reported.
B1: LCOR 910-1211 (Homo sapiens, UniProt Q96JN0-3); sequence looked up; chain QTLKNMLDKEVKELRGEIFPSRDPITTAGQPLPGERLEIYVQSKMDEKNAHIPSESIACKRDPEQAKEEPGHIPTQHVEEAVNEVDNENTQQKDDESDAPCSSLGLSSSGSGDAARAPKSVPRPKRLTSSTYNLRHAHSLGSLDASKVTSEKEAAQVNPIMPKENGASESGDPLDEDDVDTVVDEQPKFMEWCAEEENQELIANFNAQYMKVQKGWIQLEKEGQPTPRARNKSDKLKEIWKSKKRSRKCRSSLESQKCSPVQMLFMTNFKLSNVCKWFLETTETRSLVIVKKLNTRLPGDVP
B2: SREBF1 227-487 (Homo sapiens, UniProt P36956); sequence looked up; chain TTVTSQIQQVPVLLQPHFIKADSLLLTAMKTDGATVKAAGLSPLVSGTTVQTGPLPTLVSGGTILATVPLVVDAEKLPINRLAAGSKAPASAQSRGEKRTAHNAIEKRYRSSINDKIIELKDLVVGTEAKLNKSAVLRKAIDYIRFLQHSNQKLKQENLSLRTAVHKSKSLKDLVSACGSGGNTDVLMEGVKTEVEDTLTPPPSDAGSPFQSSPLSLGSRGSGSGGSGSDSEPDSPVFEDSKAKPEQRPSLHSRGMLDRSR
B3: FERMT2 1-105 (Homo sapiens, UniProt Q96AC1); sequence looked up; chain MALDGIRMPDGCYADGTWELSVHVTDLNRDVTLRVTGEVHIGGVMLKLVEKLDVKKDWSDHALWWEKKRTWLLKTHWTLDKYGIQADAKLQFTPQHKLLRLQLPN
B4: MED2/PGD1 four-helix bundle 1-431 (Saccharomyces cerevisiae); chain 1 MVVQNSPVSSVHTANFSERGSNTRTMTYKNKLTVCFDDILKVGAEMMMQQQLKNVQLDSYLVNGFSQSQQKLLKEKVKLFHGILDDLETSLSQSSSYLETLTALGKEKEKEREEAEKKRAEQENMRKVREQEELKKRQELEEASQQQQLQQNSKEKNGLGLNFSTTAPANTTDANGSKENYQELGSLQSSSQTQLENANAANNGAAFSPLTTTRIQSQQAQPSDVMFNDLNSMDISMFSGLDSTGFDSTAFNATVDETKGFDDNDSGNNYNDINISSIENNINNNINSTKNGKDNNNESNKNNNGDEKNKNNNEDNENNNNSSEKNNNNNNNNNNNNDDNGNNNNNNSGNDNNNTTNNDSNNKNNSITTGNDNENIVNNDLPTTVVSNPGDNPPPADNGEEYLTLNDFNDLNIDWSTTGDNGELDLSGFNI; chain 2 MDSIIPAGVKLDDLQVILAKNENETRDKVCKQINEARDEILPLRLQFNEFIQIMANIDQEGSKQADRMAKYLHIRDKILQLNDRFQTLSSHLEALQPLFSTVPEYLKTADNRDRSFQLLEPLSTYNKNGNAVCSTATVVSTNHSAAASTPTTTATPHANPITHAHSLSNPNSTATMQHNPLAGKRGPKSGSTMGTPTVHNSTAAAPIAAPKKPRKPRQTKKAKAQAQAQAQAQAQVYAQQSTVQTPITASMAAALPNPTPSMINSVSPTNVMGTPLTNMMSPMGNAYSMGAQNQGGQVSMSQFNGSGNGSNPNTNTNSNNTPLQSQLNLNNLTPANILNMSMNNDFQQQQQQQQQQQQPQPQYNMNMGMNNMNNGGKELDSLDLNNLELGGLNMDFL
B5: HY5 (Arabidopsis thaliana, UniProt O24646); sequence looked up; chain MQEQATSSLAASSLPSSSERSSSSAPHLEIKEGIESDEEIRRVPEFGGEAVGKETSGRESGSATGQERTQATVGESQRKRGRTPAEKENKRLKRLLRNRVSAQQARERKKAYLSELENRVKDLENKNSELEERLSTLQNENQMLRHILKNTTGNKRGGGGGSNADASL
B6: PUM1 589-1186 (Homo sapiens, UniProt Q14671); chain ISSSAAQAAVAAAAASANGAAGGLAGTTNGPFRPLGTQQPQPQPQQQPNNNLASSSFYGNNSLNSNSQSSSLFSQGSAQPANTSLGFGSSSSLGATLGSALGGFGTAVANSNTGSGSRRDSLTGSSDLYKRTSSSLTPIGHSFYNGLSFSSSPGPVGMPLPSQGPGHSQTPPPSLSSHGSSSSLNLGGLTNGSGRYISAAPGAEAKYRSASSASSLFSPSSTLFSSSRLRYGMSDVMPSGRSRLLEDFRNNRYPNLQLREIAGHIMEFSQDQHGSRFIQLKLERATPAERQLVFNEILQAAYQLMVDVFGNYVIQKFFEFGSLEQKLALAERIRGHVLSLALQMYGCRVIQKALEFIPSDQQNEMVRELDGHVLKCVKDQNGNHVVQKCIECVQPQSLQFIIDAFKGQVFALSTHPYGCRVIQRILEHCLPDQTLPILEELHQHTEQLVQDQYGNYVIQHVLEHGRPEDKSKIVAEIRGNVLVLSQHKFASNVVEKCVTHASRTERAVLIDEVCTMNDGPHSALYTMMKDQYANYVVQKMIDVAEPGQRKIVMHKIRPHIATLRKYTYGKHILAKLEKYYMKNGVDLGPICGPPNGII
B7: REC107 1-224 (Saccharomyces cerevisiae, UniProt P21651); chain MVARGRTDEISTDVSEANSEHSLMITETSSPFRSIFSHSGKVANAGALEESDKQILEWAGKLELESMELRENSDKLIKVLNENSKTLCKSLNKFNQLLEQDAATNGNVKTLIKDLASQIENQLDKVSTAMLSKGDEKKTKSDSSYRQVLVEEISRYNSKITRHVTNKQHETEKSMRCTQEMLFNVGSQLEDVHKVLLSLSKDMHSLQTRQTALEMAFREKADHA
B8: dnaG P16 domain 453-597 (Geobacillus stearothermophilus, UniProt Q9X4D0); sequence looked up; chain AKKLLPAFQNAERLLLAHMMRSRDVALVVQERIGGRFNIEEHRALAAYIYAFYEEGHEADPGALISRIPGELQPLASDVSLLLIADDVSEQELEDYIRHVLNRPKWLMLKVKEQEKTEAERRKDFLTAARIAKEMIEMKKMLSSS
B9: FliG middle domain 104-193 (Thermotoga maritima, UniProt Q9WY63); sequence looked up; chain QVKPFSFVRDTDPVQLVNFLQSEHPQTIAVVLSYLDPPVAAQILGALPEELQTEVLKRIALLERTSPEVVKEIERNLEKKISGFVSRTFS
B10: iraM 1-78 (Escherichia coli, UniProt P75987); chain MKWIVIDTVIQPTCGISFSAIWGNMKMIIWYQSTIFLPPGSIFTPVKSGIILKDKEYPITIYHIAPFNKDLWSLLKSS
B11: PSMG3/PSMG4 heterodimer (Homo sapiens); chain 1 MEDTPLVISKQKTEVVCGVPTQVVCTAFSSHILVVVTQFGKMGTLVSLEPSSVASDVSKPVLTTKVLLGQDEPLIHVFAKNLVAFVSQEAGNRAVLLAVAVKDKSMEGLKALREVIRVCQVW; chain 2 MEGLVVAAGGDVSLHNFSARLWEQLVHFHVMRLTDSLFLWVGATPHLRNLAVAMCSRYDSIPVSTSLLGDTSDTTSTGLAQRLARKTNKQVFVSYNLQNTDSNFALLVENRIKEEMEAFPEKF
B12: yihE 1-328 (Escherichia coli, UniProt P0C0K3); chain MNNSAFTFQTLHPDTIMDALFEHGIRVDSGLTPLNSYENRVYQFQDEDRRRFVVKFYRPERWTADQILEEHQFALQLVNDEVPVAAPVAFNGQTLLNHQGFYFAVFPSVGGRQFEADNIDQMEAVGRYLGRMHQTGRKQLFIHRPTIGLNEYLIEPRKLFEDATLIPSGLKAAFLKATDELIAAVTAHWREDFTVLRLHGDCHAGNILWRDGPMFVDLDDARNGPAVQDLWMLLNGDKAEQRMQLETIIEAYEEFSEFDTAEIGLIEPLRAMRLVYYLAWLMRRWADPAFPKNFPWLTGEDYWLRQTATFIEQAKVLQEPPLQLTPMY
B13: EFR3B 716-787 (Homo sapiens, UniProt Q9Y2G0); chain VPAEEITYETLKKAIVDSVAVEEQERERRRQVVEKFQKAPFEEIAAHCGARASLLQSKLNQIFEITIRPPPS
Chain of UniProt P0AEV1 (whole entry, looked up): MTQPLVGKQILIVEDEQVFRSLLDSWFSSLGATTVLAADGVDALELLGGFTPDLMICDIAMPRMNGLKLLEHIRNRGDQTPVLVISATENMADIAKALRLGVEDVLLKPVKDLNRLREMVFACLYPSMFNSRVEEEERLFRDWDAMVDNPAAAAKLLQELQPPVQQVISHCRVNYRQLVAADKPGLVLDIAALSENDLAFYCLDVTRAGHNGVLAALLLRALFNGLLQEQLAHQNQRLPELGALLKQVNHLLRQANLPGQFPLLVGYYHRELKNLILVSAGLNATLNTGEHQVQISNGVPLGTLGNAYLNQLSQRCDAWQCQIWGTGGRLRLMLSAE
Chain of UniProt P13382 (whole entry, looked up): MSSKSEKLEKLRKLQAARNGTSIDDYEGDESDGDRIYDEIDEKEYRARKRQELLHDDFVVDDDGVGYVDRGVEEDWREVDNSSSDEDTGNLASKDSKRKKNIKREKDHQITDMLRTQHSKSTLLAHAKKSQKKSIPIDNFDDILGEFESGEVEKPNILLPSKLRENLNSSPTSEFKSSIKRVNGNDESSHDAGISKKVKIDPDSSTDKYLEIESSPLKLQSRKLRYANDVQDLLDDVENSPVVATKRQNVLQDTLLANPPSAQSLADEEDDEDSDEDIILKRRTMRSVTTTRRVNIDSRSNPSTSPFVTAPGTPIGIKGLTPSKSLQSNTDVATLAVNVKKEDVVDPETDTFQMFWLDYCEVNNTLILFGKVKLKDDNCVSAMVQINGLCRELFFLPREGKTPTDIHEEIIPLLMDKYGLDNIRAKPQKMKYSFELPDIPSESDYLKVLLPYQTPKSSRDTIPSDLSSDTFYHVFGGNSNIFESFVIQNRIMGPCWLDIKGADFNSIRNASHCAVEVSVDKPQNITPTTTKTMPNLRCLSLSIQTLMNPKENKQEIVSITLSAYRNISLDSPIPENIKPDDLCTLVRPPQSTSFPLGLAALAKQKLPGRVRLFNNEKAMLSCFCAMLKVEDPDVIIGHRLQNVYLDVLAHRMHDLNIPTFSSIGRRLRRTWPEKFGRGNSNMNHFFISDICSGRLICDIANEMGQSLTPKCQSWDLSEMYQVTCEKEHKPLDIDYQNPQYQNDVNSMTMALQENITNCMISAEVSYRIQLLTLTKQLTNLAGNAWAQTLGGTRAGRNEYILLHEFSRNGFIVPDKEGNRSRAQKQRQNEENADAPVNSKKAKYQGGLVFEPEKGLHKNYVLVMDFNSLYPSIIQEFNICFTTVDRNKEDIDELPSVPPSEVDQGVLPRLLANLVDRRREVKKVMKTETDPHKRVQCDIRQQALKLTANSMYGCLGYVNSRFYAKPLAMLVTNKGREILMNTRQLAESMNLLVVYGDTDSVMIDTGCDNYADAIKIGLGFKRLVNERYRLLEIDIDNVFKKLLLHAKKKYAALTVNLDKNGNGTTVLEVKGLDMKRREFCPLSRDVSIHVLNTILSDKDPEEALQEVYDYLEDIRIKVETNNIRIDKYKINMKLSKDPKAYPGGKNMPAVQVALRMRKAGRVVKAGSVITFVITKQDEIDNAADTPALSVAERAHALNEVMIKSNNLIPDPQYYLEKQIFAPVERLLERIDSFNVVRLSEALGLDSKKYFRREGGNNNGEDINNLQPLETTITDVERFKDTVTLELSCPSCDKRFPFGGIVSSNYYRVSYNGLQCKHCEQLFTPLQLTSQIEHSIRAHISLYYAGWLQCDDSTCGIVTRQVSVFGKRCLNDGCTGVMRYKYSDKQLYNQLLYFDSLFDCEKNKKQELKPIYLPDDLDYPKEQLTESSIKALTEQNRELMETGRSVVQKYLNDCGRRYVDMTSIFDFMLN
Chain of UniProt O14818 (whole entry, looked up): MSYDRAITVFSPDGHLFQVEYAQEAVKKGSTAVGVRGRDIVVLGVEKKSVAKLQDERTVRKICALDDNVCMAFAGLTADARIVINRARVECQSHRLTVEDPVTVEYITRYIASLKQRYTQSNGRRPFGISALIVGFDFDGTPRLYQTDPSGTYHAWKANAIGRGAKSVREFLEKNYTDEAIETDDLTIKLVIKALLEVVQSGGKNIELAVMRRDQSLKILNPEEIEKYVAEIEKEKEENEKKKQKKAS
Chain of UniProt Q9X4C9 (whole entry, unmodified, looked up): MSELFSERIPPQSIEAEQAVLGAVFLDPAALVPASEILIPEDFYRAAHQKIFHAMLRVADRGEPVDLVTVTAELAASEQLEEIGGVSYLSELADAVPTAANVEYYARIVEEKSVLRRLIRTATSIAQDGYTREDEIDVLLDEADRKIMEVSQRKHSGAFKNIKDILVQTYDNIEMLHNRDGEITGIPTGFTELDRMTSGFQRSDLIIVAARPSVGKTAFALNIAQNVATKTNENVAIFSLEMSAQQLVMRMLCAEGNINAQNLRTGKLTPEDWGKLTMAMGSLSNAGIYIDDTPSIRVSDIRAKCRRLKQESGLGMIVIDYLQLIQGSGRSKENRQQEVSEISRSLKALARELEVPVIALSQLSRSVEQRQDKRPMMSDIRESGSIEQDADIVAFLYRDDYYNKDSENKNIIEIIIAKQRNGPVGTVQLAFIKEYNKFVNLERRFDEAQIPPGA
Chain of UniProt Q9SKD9 (whole entry, looked up): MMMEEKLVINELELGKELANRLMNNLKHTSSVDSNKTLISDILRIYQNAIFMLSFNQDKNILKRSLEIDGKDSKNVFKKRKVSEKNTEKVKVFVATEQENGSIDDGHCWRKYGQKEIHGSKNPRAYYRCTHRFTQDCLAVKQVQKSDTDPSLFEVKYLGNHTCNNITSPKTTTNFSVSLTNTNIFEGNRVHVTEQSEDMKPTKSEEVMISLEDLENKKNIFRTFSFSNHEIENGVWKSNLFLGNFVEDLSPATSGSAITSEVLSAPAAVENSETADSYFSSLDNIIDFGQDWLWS
Chain of UniProt P20457 (whole entry, looked up): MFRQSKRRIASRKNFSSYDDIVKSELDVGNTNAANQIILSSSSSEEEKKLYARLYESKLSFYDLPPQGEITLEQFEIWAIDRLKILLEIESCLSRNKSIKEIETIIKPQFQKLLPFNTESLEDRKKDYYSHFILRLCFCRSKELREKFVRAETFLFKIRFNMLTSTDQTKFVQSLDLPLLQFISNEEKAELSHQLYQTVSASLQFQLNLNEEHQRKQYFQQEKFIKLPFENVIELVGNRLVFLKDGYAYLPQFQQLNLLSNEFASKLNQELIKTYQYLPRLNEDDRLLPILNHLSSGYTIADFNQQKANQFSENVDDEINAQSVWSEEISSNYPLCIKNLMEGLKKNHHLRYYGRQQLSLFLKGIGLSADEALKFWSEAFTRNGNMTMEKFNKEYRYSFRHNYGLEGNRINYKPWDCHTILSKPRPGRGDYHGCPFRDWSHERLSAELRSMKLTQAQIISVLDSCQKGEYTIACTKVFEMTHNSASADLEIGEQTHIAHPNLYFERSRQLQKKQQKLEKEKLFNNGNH
Chain of UniProt Q9WZE6 (whole entry, looked up): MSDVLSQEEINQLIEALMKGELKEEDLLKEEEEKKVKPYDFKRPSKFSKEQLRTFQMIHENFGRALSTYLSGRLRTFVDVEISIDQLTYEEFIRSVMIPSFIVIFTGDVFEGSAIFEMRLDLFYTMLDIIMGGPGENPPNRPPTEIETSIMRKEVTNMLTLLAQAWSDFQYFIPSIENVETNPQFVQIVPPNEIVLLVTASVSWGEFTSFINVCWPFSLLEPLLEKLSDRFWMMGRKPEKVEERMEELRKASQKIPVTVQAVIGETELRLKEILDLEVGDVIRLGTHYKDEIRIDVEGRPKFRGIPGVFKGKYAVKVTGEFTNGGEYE
Chain of UniProt Q39204 (whole entry, looked up): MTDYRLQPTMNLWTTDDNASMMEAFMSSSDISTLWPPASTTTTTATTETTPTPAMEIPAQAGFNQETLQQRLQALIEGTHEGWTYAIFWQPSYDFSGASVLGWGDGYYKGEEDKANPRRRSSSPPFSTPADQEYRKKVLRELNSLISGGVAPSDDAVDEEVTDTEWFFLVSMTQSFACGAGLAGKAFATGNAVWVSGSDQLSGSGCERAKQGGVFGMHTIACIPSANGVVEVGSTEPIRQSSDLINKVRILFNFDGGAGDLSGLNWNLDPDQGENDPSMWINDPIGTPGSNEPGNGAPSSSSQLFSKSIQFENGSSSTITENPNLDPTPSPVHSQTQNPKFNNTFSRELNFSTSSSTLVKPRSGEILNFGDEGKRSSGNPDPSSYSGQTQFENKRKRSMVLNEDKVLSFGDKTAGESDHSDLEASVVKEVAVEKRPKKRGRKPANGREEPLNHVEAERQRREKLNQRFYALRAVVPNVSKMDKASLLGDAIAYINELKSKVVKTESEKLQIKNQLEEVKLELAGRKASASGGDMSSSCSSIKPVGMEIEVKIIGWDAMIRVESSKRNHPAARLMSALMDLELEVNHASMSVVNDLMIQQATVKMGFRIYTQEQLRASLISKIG
Chain of UniProt Q03012 (whole entry, looked up): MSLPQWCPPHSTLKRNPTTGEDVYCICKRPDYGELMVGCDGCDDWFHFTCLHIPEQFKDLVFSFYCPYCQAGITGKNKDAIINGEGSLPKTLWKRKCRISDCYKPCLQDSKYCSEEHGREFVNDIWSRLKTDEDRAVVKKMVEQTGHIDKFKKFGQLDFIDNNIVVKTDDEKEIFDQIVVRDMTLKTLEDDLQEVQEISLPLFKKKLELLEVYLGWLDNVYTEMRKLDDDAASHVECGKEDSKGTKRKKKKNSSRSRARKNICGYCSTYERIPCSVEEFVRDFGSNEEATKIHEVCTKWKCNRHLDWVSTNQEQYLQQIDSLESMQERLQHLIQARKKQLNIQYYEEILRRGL
Chain of UniProt Q9LET0 (whole entry, unmodified, looked up): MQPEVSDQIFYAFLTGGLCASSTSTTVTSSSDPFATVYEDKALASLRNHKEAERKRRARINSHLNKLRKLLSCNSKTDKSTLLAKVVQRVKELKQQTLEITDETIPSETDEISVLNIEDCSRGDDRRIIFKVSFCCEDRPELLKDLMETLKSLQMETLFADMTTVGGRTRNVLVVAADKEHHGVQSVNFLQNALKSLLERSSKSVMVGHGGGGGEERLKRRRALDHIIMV

`B1 (LCOR 910-1211)` — result for binding: “binds” (SUZ12 (Homo sapiens, UniProt Q15022); pull-down).
`B2 (SREBF1 227-487)`: binding “binds” (LMNA 389-664 R482W (UniProt P02545); pull-down).
`GPDAVIIGMTKIPVIENPQYFGI (NTRK2 residues 493-515; pY512)`: binding “binds” (FRS2 8-122 (Homo sapiens, UniProt Q8WU20); NMR; peptide).
`B3 (FERMT2 1-105)` — result for binding: “binds” (PXN 485-605 (Homo sapiens, UniProt P49023-3); NMR titration).
Under binding, `B4` is recorded as “binds” (SIN4 1-974 (Saccharomyces cerevisiae, UniProt P32259); cryo-EM).
The tissue uptake of `FNA / CGLSGLGVA-NH2 ([18F]FNA-labelled, C-amide)` is reported as 1.06 %ID/g (ex vivo gamma counting; peptide, glioblastoma mouse model, plasma; 60 min post injection, with: 500-fold excess CooP blocking).
For `MWVYRLKGTLEALDPILPGLFDGGARGLWEREGEVWAFFPAPVDLPYEGVWEEVGDEDW (prmA 1-59 (Thermus thermophilus, UniProt Q84BQ9); sequence looked up)`, binding read “binds” (rplK N-terminal domain 2-72 (Thermus thermophilus, UniProt Q5SLP6); X-ray crystallography; complex, N-terminal domains).
`B5 (HY5)`: binding “binds” (bHLH107 S62A/S72A (Arabidopsis, UniProt Q9LET0); pull-down).
For `WRKY46 (Arabidopsis thaliana, UniProt Q9SKD9)`, binding read “binds” (MYC2 (Arabidopsis thaliana, UniProt Q39204); pull-down).
`B6 (PUM1 589-1186)` — result for binding: “binds” (CNOT1/CNOT2/CNOT3 C-terminal NOT module 1833-2361; pull-down).
`B7 (REC107 1-224)`: binding “binds” (SPP1 (Saccharomyces cerevisiae, UniProt Q03012); pull-down).
Under binding, `CKVTRRPKASDYQRL (TGOLN1 YxxΦ peptide)` is recorded as “binds” (AP2A2/AP2B1/AP2M1/AP2S1 core, lacking appendage domains (Mus musculus); cryo-EM; peptide).
`Peginesatide` gave a phosphorylation level of 4.2 fold (UT7/EPO; tyrosine phosphorylation, LC-MS/MS phosphoproteomics, trypsin, measured: RICS tyrosine 752; 10 nM, 15 min, with: 10 U/mL EPO; reference: vehicle).
Under binding, `B8 (dnaG P16 domain 453-597)` is recorded as “binds” (dnaB I119A/I125A (Geobacillus stearothermophilus, UniProt Q9X4C9); NMR titration).
For `EDDICILNHEK (AZI2 6-16 (Homo sapiens, UniProt Q9H6S1))`, binding read “binds” (RB1CC1 1490-1594 (Homo sapiens, UniProt Q8TDY2); SEC).
Under binding, `DVLLLDVTPLS (HSPA9 interdomain linker, 434-444 (Homo sapiens))` is recorded as “binds” (HSPA9 NBD 52-431 R126W (Homo sapiens, UniProt P38646); BLI; peptide; with: ADP).
For `B9 (FliG middle domain 104-193)`, binding read “binds” (fliM 1-229 (Thermotoga maritima, UniProt Q9WZE6); NMR titration).
`PRI2 (Saccharomyces cerevisiae, UniProt P20457)` — result for binding: “binds” (POL1 (Saccharomyces cerevisiae, UniProt P13382); cryo-EM).
Under binding, `B10 (iraM 1-78)` is recorded as “binds” (rssB (Escherichia coli, UniProt P0AEV1); crystal structure).
`B11 (PSMG3/PSMG4 heterodimer)` — result for binding: “binds” (PSMA7 (Homo sapiens, UniProt O14818); cryo-EM).
`11-deoxycorticosterone`: “rate constant k1” 0.831 ± 0.0775 s⁻¹ (CYP11B2 (human); substrate binding, stopped-flow global kinetic fitting; purified enzyme; 3-state conformational selection model, with: 40-fold excess adrenodoxin).
`B12 (yihE 1-328)`: binding “binds” (rho 1-419 (Escherichia coli, UniProt P0AG30); pull-down).
`DGPGGGPGGSHMGGNYGDDRRGGRGGYDRGGYRGRGGDRGGFRGGRGGGDRGGFG (FUS 453-507 (Homo sapiens, UniProt P35637); sequence looked up)`: binding “binds” (NUP62 (Homo sapiens, UniProt P37198); co-IP).
`KKISNTAAALVSLLDEND (NUP60 267-284 (Saccharomyces cerevisiae, UniProt P39705); sequence looked up)`: binding “binds” (MLP1 382-620 (Saccharomyces cerevisiae, UniProt Q02455); pull-down; peptide).
For `colistin`, the MIC was ≤ 0.5 µg/mL (Salmonella enterica Derby; broth microdilution; clinical isolate RKI 436/14).
`B13 (EFR3B 716-787)` — result for binding: “binds” (TTC7A/FAM126A 1-308; BLI).

Excerpt of the above:
`Peginesatide` gave a phosphorylation level of 4.2 fold (UT7/EPO; tyrosine phosphorylation, LC-MS/MS phosphoproteomics, trypsin, measured: RICS tyrosine 752; 10 nM, 15 min, with: 10 U/mL EPO; reference: vehicle).
Under binding, `B8 (dnaG P16 domain 453-597)` is recorded as “binds” (dnaB I119A/I125A (Geobacillus stearothermophilus, UniProt Q9X4C9); NMR titration).
For `EDDICILNHEK (AZI2 6-16 (Homo sapiens, UniProt Q9H6S1))`, binding read “binds” (RB1CC1 1490-1594 (Homo sapiens, UniProt Q8TDY2); SEC).
